Experimental data pooled from the literature.
Numbers after ± are the reported error.
Cytochrome P450 2A13: Cytochrome P450 2A13 (Homo sapiens, UniProt Q16696)
Chain of UniProt Q16696 (whole entry, looked up): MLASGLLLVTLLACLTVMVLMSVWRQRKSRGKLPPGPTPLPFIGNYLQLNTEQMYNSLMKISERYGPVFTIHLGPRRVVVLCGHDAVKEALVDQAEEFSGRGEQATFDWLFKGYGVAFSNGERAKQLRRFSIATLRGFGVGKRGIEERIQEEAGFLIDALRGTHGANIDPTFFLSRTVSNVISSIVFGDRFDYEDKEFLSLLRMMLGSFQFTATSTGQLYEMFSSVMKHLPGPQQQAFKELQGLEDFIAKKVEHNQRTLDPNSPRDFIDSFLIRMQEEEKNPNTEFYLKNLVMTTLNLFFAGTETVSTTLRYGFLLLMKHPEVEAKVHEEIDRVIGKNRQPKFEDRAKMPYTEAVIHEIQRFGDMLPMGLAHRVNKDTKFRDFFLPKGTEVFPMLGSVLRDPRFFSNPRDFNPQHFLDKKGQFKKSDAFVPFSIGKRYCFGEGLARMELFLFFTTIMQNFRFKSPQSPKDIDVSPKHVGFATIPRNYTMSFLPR
gag-pol reverse transcriptase: Gag-Pol polyprotein, reverse transcriptase (gag-pol, Human immunodeficiency virus 1, UniProt P03366)
Uncharacterized protein: Uncharacterized protein (Equus caballus, UniProt Q38RB9)
SCRIB PDZ3 domain: Protein scribble homolog, PDZ3 domain (SCRIB, Homo sapiens, UniProt Q14160)
Chain of UniProt Q14160 (whole entry, looked up): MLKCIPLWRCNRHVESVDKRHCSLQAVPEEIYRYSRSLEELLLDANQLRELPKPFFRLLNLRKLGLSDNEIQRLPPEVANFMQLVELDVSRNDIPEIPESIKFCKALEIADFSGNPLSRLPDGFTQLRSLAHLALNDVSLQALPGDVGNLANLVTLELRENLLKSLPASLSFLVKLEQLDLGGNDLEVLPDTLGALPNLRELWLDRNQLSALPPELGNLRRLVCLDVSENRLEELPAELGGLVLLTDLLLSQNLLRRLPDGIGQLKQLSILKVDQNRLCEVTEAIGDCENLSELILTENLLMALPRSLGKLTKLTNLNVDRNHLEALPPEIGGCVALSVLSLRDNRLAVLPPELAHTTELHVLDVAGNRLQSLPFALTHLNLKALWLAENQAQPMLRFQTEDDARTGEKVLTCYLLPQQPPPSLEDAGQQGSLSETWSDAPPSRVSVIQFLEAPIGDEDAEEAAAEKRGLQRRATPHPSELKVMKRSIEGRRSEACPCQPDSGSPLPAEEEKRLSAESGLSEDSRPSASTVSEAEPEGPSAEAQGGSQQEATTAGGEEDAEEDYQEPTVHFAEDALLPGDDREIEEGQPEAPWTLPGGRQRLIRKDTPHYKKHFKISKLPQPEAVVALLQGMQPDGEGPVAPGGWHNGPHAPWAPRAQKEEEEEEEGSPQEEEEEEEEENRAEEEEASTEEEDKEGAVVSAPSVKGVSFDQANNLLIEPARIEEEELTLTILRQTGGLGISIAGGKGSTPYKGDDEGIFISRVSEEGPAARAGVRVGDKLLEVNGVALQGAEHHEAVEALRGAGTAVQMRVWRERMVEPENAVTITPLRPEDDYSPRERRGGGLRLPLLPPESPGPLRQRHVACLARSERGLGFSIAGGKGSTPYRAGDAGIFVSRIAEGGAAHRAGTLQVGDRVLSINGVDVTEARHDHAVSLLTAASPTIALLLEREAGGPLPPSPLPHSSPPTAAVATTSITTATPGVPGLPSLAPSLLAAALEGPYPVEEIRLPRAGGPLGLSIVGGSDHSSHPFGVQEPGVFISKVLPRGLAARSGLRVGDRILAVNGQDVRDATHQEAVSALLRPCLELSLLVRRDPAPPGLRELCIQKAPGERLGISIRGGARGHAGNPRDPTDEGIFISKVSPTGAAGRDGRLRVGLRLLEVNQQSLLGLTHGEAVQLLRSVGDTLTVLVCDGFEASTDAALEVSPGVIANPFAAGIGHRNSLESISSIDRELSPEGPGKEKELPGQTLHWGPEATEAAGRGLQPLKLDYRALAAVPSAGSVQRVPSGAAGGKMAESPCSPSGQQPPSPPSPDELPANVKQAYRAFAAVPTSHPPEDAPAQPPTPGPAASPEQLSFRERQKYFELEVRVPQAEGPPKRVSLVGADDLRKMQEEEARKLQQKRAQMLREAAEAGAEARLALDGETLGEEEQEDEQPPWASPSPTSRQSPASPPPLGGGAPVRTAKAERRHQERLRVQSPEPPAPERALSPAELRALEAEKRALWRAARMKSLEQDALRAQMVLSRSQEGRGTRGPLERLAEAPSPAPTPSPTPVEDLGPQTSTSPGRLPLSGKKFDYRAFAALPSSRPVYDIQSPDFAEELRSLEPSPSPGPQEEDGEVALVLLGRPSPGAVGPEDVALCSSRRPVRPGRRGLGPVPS
Chain of UniProt Q9H4A3 (whole entry, looked up): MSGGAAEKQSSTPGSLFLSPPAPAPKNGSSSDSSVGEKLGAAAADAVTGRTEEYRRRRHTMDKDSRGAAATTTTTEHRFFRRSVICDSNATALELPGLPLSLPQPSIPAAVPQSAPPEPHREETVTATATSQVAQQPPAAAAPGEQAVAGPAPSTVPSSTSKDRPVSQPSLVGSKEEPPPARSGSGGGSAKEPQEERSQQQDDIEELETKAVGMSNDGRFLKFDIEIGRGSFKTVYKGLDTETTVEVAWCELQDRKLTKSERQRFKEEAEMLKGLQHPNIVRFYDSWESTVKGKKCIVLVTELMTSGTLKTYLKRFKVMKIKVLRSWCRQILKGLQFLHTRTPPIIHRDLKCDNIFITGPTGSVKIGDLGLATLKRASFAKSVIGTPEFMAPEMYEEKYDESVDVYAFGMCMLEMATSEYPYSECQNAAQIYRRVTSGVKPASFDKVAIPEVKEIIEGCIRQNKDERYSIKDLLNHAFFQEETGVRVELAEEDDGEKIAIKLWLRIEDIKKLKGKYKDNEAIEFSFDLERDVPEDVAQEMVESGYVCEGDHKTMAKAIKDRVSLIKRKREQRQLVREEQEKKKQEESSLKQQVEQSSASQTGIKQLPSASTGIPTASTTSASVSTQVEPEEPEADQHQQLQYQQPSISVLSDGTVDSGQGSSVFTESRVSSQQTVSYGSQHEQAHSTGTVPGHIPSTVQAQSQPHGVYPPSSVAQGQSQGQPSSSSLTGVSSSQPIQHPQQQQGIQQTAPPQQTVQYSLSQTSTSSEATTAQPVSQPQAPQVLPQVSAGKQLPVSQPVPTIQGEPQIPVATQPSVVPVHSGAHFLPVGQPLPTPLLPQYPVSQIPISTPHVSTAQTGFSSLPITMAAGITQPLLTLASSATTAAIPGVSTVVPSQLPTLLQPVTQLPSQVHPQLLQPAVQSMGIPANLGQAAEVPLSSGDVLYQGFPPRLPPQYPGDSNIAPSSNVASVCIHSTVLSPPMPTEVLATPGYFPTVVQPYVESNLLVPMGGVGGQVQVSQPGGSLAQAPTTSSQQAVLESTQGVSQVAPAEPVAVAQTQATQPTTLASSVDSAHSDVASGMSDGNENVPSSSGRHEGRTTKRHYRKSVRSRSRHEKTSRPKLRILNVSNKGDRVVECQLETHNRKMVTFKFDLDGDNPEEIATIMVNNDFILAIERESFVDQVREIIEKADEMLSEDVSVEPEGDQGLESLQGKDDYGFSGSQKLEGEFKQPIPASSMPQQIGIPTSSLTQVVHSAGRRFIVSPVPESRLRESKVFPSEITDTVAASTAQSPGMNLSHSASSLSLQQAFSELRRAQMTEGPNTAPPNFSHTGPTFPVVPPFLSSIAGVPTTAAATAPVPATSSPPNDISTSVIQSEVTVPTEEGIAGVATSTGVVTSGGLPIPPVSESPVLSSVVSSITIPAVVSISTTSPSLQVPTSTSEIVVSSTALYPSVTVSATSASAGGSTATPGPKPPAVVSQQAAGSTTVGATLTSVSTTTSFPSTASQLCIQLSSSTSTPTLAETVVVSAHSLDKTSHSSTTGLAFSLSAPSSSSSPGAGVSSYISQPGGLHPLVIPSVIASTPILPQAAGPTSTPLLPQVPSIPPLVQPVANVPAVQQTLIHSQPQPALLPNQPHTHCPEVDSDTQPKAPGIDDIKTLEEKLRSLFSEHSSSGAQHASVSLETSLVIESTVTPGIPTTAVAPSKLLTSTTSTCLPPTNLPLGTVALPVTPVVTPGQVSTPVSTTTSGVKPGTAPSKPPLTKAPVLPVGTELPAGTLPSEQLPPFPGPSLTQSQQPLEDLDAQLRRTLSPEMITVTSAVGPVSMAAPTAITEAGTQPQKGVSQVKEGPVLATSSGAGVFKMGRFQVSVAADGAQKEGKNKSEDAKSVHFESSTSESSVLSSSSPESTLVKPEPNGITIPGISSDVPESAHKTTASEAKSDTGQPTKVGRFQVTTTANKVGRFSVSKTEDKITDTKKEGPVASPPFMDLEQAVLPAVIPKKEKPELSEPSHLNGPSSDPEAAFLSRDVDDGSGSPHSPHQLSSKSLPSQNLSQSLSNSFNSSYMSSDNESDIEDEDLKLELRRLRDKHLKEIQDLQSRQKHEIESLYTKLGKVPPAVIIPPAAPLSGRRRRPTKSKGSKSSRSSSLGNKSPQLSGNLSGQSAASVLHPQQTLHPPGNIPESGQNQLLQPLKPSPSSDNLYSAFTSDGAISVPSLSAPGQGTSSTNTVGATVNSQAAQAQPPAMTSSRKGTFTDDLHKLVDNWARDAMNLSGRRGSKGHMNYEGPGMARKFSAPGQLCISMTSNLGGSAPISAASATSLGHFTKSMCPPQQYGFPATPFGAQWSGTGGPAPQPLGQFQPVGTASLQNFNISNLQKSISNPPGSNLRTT
Chain of UniProt Q00987 (whole entry, looked up): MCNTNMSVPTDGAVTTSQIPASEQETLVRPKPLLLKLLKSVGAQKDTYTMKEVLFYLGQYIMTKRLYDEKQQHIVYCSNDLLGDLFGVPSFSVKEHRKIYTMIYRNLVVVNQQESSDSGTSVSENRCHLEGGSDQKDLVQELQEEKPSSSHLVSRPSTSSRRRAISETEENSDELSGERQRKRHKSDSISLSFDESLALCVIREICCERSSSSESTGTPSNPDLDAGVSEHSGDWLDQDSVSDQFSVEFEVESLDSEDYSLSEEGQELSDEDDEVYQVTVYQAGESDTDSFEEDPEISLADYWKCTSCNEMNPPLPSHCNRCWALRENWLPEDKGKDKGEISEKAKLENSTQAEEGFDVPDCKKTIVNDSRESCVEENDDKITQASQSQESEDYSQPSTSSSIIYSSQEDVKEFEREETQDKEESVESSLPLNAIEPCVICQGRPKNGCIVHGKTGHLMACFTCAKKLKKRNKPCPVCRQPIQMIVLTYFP

OC1c2cccc3ccc4c5ccccc5cc(c4c23)C1O (centres unmarked)  IC50 (Cytochrome P450 2A13; enzyme activity, inhibitor; 20 min, pH 7.4): > 200 µM
O=C1CSC(c2cccc(F)c2)N1c1nc(-c2ccc(S(=O)(=O)N3CCOCC3)cc2)cs1 (centres unmarked)  IC50 (gag-pol reverse transcriptase): > 4 µM
COP(=O)(OC1CCCCC1)OC1CCCCC1  IC50 (had (Sphingobium sp. TCM1, UniProt A0A077JBW9)): 120 ± 10 µM
CC[C@H](C)[C@H](NC(=O)[C@H](Cc1c[nH]cn1)NC(=O)[C@H](CCCNC(=N)N)NC(=O)[C@H](CC(C)C)NC(=O)[C@H](CCC(N)=O)NC(=O)[C@H](CO)NC(=O)[C@H](CC(N)=O)NC(=O)[C@@H]1CCCN1C(=O)[C@@H](NC(=O)[C@H](CC(=O)O)NC(=O)[C@@H](N)CCCCN)C(C)C)C(=O)O  IC50 (Uncharacterized protein; peptide binding, competitor, competitive radioligand binding; purified horse MHC class I; pH 7): 0.045 µM
CSCC[C@H](NC(=O)[C@H](Cc1ccccc1)NC(=O)[C@H](C)NC(=O)[C@@H](N)Cc1c[nH]c2ccccc12)C(=O)N[C@@H](CCCNC(=N)N)C(=O)N[C@@H](Cc1ccc(O)cc1)C(=O)N[C@@H](CCCNC(=N)N)C(=O)N[C@@H](CCC(N)=O)C(=O)N[C@@H](CCC(N)=O)C(=O)N[C@@H](CC(C)C)C(=O)O  Kd (SCRIB PDZ3 domain; binding, fluorescence polarization; solution; Scribble PDZ3 domain): 32 µM
O=C(O)c1cc(-c2ccc([C@@H]3C[C@@H]4C[C@H]3NC4=O)cc2)c2ccc(-c3ccc(C(F)(F)F)cc3)cc2c1  IC50 (P2Y purinoceptor 14 (P2RY14, Homo sapiens, UniProt Q15391); antagonist, flow cytometry; CHO expressing target; added: fluorescent antagonist 20 nM): ~0.04 µM
CCc1cccc(CC)c1NC(=O)NC(=N)NCCCSC  IC50 (4'-phosphopantetheinyl transferase PptT (Mycobacterium tuberculosis, UniProt O33336); inhibitor): > 100 µM
O=C1CSC(c2ccc(Cl)cc2)N1c1nc(-c2ccc(S(=O)(=O)N3CCCC3)cc2)cs1 (centres unmarked)  IC50 (gag-pol reverse transcriptase): 0.12 µM
C[C@H]1CN(c2n[nH]c3nc(N[C@H]4CC[C@H](NS(=O)(=O)CCC(F)(F)F)CC4)ncc23)CCO1  IC50 (WNK1 (Homo sapiens, UniProt Q9H4A3); biochemical): ≥ 20 µM
c1ccccc1  IC50 (Cytochrome P450 2A13; 20 min, pH 7.4): > 200 µM
CCOC(=O)[C@H]1Cc2c(cc([N+](=O)[O-])cc2[N+](=O)[O-])[C@@H](O)[C@@]12C(=O)Nc1ccc(F)cc12  IC50 (MDM2 (Homo sapiens, UniProt Q00987)): 0.57 ± 0.08 µM
CO[C@H]1C[C@H](O[C@H]2[C@H](C)O[C@@H](O[C@@H]3/C(C)=C/C[C@@H]4C[C@@H](C[C@]5(C=C[C@H](C)[C@@H](C6CCCCC6)O5)O4)OC(=O)[C@@H]4C=C(C)[C@@H](O)[C@H]5OC/C(=C\C=C\[C@@H]3C)[C@]54O)C[C@@H]2OC)O[C@@H](C)[C@@H]1O  IC50 (Nuclear receptor subfamily 1 group I member 3 (Homo sapiens, UniProt Q14994); coactivator recruitment): 1.84 ± 0.54 µM
C#CCNC(=O)c1ccc(S(=O)(=O)N[C@@H](CCCCNC(=O)c2cccc(OS(=O)(=O)F)c2)C(=O)N[C@@H](Cc2c[nH]c3ccccc23)C(=O)NC2CCC2)cc1  IC50 (SIRT5 (Homo sapiens, UniProt Q9NXA8); inhibitor, fluorogenic; 4 h preincubation, His-tagged enzyme 150 nM, added: NAD+ 500 µM): 19.6 ± 7.9 µM
CC(C)C[C@H](NC(=O)[C@H](CO)NC(=O)[C@@H](NC(=O)[C@@H](NC(=O)[C@@H](NC(=O)[C@H](Cc1ccccc1)NC(=O)[C@@H](NC(=O)[C@H](CC(=O)O)NC(=O)[C@H](CCC(=O)O)NC(=O)[C@@H]1CCCN1)[C@@H](C)O)[C@@H](C)O)C(C)C)[C@@H](C)O)C(=O)O  Kd (SCRIB PDZ3 domain; binding, fluorescence polarization; solution; Scribble PDZ3 domain): 10.4 µM
COc1cc(Nc2ncc(F)c(Nc3ccc4c(n3)NC(=O)C(C)(C)O4)n2)cc(OC)c1OC  IC50 (LTB4R (Homo sapiens, UniProt Q15722)): > 10 µM
COc1ccc(N2C(=O)N(c3c(C)cccc3Cl)Cc3cnc(Nc4ccc(C5CCN(C)CC5)cc4OC)nc32)nc1  inhibition (RET (Homo sapiens, UniProt P07949); kinase activity; 0.5 µM): 92%
O=C(O)CNCP(=O)(O)O  Ki (EPSP synthase (Zea mays, UniProt A0A1D6NVZ6, P168S/P188S/T164I)): 859 ± 42 µM
CO[C@]1([C@@H]2CSC(=O)N2C2CCCC2)C[C@H]2C[C@@H](CC[C@H](C)/C=C\C=C\CC/C(C)=C\C(=O)O2)O1  IC50 (Actin, alpha skeletal muscle, pyrene-labeled (ACTA1, Oryctolagus cuniculus, UniProt P68135); actin polymerization, pyrene actin): 1.05 ± 0.271 µM
O=[N+]([O-])c1cc(-c2noc(C3CCC3)n2)ccc1NCCCCCCN1C[C@H](O)[C@@H](O)[C@H](O)[C@H]1CO  IC50 (Ganab (Mus musculus, UniProt Q8BHN3); enzyme activity, inhibitor; added: 4-methylumbelliferyl substrate): < 0.001 µM
CC[C@H](C)[C@H](NC(=O)[C@@H]1CCCN1C(=O)[C@@H](NC(=O)[C@H](CC(=O)O)NC(=O)[C@@H](N)CCCNC(=N)N)[C@@H](C)CC)C(=O)N[C@H](C(=O)N[C@@H](Cc1c[nH]cn1)C(=O)N[C@@H](CCCNC(=N)N)C(=O)N[C@H](C(=O)O)C(C)C)C(C)C  IC50 (Uncharacterized protein; peptide binding, competitor, competitive radioligand binding; purified horse MHC class I; pH 7): 0.037 µM

Repeated from above:
CSCC[C@H](NC(=O)[C@H](Cc1ccccc1)NC(=O)[C@H](C)NC(=O)[C@@H](N)Cc1c[nH]c2ccccc12)C(=O)N[C@@H](CCCNC(=N)N)C(=O)N[C@@H](Cc1ccc(O)cc1)C(=O)N[C@@H](CCCNC(=N)N)C(=O)N[C@@H](CCC(N)=O)C(=O)N[C@@H](CCC(N)=O)C(=O)N[C@@H](CC(C)C)C(=O)O  Kd (SCRIB PDZ3 domain; binding, fluorescence polarization; solution; Scribble PDZ3 domain): 32 µM
